Results collected from several papers.
Protocols differ between the studies behind these lines. Values joined by “and” are separate records of one study, mostly repeats; a detail may differ. Numbers after ± are the reported error.
Astl: Astacin-like metalloendopeptidase (Astl, Mus musculus, UniProt Q6HA09)
Sequence of UniProt Q16539 (whole entry, looked up): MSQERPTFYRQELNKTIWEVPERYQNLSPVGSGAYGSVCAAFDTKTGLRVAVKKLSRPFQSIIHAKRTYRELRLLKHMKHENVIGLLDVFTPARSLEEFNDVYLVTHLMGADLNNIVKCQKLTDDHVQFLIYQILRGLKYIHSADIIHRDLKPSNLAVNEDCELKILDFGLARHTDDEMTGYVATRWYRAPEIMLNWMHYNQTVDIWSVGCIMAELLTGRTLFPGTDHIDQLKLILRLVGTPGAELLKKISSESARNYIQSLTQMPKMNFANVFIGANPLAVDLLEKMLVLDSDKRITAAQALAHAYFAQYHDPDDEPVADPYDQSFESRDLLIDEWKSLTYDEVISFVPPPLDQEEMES
Sequence of UniProt Q6HA09 (whole entry, looked up): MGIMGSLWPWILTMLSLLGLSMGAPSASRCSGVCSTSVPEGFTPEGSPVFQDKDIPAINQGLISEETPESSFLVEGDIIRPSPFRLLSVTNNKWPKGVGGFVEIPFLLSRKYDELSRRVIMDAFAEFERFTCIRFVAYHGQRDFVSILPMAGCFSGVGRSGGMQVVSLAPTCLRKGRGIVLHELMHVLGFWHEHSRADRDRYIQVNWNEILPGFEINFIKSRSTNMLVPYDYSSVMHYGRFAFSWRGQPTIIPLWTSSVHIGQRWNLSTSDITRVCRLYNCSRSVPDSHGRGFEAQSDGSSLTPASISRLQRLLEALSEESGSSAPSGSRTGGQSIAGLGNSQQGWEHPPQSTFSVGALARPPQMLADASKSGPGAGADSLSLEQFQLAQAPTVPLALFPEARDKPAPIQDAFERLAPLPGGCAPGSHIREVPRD
Sequence of UniProt P45983 (whole entry, looked up): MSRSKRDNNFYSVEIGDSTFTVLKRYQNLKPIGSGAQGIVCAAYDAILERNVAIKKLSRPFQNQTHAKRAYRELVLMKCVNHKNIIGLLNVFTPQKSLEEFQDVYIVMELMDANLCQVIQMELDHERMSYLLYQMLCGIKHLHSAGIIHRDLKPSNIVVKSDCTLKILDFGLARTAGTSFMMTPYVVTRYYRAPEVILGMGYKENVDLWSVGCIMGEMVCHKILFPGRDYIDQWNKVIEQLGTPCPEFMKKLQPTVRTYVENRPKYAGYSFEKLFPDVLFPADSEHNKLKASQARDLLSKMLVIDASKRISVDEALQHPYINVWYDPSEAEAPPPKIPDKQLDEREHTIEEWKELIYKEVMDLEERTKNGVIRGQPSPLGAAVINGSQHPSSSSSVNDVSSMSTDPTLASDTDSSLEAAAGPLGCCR
Sequence of UniProt Q9HB29 (whole entry, looked up): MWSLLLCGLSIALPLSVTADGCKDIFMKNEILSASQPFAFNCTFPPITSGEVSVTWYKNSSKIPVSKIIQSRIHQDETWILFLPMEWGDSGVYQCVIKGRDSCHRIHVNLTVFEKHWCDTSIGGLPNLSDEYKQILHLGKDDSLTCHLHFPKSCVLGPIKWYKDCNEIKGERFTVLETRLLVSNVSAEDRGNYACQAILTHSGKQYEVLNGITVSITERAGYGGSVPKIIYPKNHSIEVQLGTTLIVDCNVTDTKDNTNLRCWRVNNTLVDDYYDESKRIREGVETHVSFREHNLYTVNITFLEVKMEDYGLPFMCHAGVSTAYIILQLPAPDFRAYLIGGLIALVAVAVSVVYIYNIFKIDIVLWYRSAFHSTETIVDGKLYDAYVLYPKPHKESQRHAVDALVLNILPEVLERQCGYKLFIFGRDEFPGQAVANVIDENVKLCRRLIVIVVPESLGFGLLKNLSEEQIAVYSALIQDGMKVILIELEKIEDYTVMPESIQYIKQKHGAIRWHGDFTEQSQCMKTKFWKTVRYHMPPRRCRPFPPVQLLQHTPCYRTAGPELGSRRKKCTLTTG
Sequence of UniProt Q14191 (500-946, looked up): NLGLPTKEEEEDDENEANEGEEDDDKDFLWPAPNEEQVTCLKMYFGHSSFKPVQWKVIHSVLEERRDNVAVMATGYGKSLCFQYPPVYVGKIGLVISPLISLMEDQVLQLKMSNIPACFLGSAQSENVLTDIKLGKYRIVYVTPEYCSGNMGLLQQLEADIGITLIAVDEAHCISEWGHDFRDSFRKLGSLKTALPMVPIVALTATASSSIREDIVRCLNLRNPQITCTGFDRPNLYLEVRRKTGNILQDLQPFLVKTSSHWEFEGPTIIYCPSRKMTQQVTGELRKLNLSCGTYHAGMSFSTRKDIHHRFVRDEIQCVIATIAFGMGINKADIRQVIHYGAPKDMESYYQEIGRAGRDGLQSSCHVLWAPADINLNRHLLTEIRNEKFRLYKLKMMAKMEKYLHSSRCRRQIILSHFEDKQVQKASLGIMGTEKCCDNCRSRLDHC
Sequence of UniProt Q6V1X1 (whole entry, looked up): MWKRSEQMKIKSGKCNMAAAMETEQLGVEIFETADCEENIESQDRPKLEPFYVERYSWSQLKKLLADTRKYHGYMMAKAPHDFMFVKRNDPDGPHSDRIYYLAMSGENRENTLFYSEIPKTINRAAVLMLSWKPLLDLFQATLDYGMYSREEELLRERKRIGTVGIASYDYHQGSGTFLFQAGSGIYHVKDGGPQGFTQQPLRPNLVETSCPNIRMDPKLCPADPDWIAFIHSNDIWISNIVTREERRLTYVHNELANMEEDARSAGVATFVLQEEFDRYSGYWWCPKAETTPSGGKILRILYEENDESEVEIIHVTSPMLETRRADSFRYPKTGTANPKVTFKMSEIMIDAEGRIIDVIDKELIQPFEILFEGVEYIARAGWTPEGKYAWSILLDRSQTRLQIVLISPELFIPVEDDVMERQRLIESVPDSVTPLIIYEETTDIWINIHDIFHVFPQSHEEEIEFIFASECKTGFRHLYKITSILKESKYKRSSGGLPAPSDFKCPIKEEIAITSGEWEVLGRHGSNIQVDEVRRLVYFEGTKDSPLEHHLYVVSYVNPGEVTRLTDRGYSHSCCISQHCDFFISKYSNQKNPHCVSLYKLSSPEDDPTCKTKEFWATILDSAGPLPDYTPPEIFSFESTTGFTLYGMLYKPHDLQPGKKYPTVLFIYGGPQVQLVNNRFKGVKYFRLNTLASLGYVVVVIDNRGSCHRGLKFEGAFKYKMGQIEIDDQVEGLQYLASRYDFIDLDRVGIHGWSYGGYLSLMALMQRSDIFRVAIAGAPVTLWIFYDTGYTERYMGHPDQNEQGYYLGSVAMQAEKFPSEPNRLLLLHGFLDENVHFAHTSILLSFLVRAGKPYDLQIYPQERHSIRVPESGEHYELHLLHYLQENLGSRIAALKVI
Sequence of UniProt P00747 (whole entry, looked up): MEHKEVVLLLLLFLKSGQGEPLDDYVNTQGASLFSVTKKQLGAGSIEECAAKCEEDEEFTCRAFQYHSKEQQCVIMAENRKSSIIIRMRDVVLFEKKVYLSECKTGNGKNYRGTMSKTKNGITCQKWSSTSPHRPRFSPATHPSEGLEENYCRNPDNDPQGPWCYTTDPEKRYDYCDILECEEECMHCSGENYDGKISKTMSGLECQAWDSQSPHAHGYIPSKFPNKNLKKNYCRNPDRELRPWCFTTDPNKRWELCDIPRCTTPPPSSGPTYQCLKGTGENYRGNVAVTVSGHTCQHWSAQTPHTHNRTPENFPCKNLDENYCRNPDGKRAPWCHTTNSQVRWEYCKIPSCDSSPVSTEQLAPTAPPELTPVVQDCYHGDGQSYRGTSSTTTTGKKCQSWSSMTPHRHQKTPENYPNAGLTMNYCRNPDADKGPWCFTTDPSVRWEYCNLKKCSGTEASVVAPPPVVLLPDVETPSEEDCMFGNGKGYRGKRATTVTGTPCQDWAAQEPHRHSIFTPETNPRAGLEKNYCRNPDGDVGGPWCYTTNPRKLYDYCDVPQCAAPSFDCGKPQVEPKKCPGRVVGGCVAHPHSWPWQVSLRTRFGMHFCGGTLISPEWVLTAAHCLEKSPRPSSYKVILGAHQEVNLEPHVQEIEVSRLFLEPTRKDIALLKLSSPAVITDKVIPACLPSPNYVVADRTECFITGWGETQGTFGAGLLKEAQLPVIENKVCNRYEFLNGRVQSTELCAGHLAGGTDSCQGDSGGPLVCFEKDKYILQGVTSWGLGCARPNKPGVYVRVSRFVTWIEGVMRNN

COc1ccccc1-c1ccncc1C(=O)Nc1nnc(OCc2ccc(Cl)cc2)s1  remaining activity (Bifunctional 3'-5' exonuclease/ATP-dependent helicase WRN, residues 500-946 (WRN, Homo sapiens, UniProt Q14191); ATPase activity, ADP-Glo; 30 µM; reference: 0 µM cpd): 97%
O=C(CCN(Cc1ccc(Cl)cc1F)Cc1ccc(Cl)cc1F)NO  remaining activity (Astl; enzyme activity, inhibitor, fluorogenic; 5 µM): 14 ± 2%
COC(=O)[C@@]1(C)C=C(C(=O)Nc2cccc(C(=O)Nc3ccc(Nc4nccc(-c5cccnc5)n4)c(C)c3)c2)C(=O)CC1  remaining activity (MAPK14 (Homo sapiens, UniProt Q16539); enzyme activity, inhibitor; 400 µM, unit not given; reference: vehicle): 0.145 and 0.11 and 0.12
COc1c(Cl)ccc(CN(CCC(=O)NO)Cc2ccc(Cl)c(OC)c2F)c1F  remaining activity (Astl; enzyme activity, inhibitor, fluorogenic; 0.25 µM): 62 ± 5%
Cc1cc(NC(=O)c2cccc(NC(=O)/C(C#N)=C/C(C)(C)C)c2)ccc1Nc1nccc(-c2cccnc2)n1  remaining activity (Mitogen-activated protein kinase 8, phosphorylated (MAPK8, Homo sapiens, UniProt P45983); enzyme activity after dialysis, inhibitor; 10 µM, 1 days, unit not given; reference: no inhibitor): 0.3
O=C(CN(Cc1cccc(C(=O)O)c1)Cc1ccc2c(c1)OCO2)NO  remaining activity (Astl; enzyme activity, inhibitor, fluorogenic; 0.25 µM): 96 ± 4%
CC(C)[C@@H]1NC(=O)[C@H](Cc2ccccc2)NC(=O)CSC[C@@H](C(N)=O)NC(=O)[C@H](CCC(=O)O)NC(=O)[C@H](CO)NC(=O)[C@H](Cc2c[nH]c3cccc(Cl)c23)NC(=O)[C@H](C2CCCCC2)NC(=O)[C@H](C(C)C)NC(=O)[C@H](Cc2ccc(O)cc2)NC(=O)[C@H](CC(=O)O)NC(=O)[C@H](Cc2c[nH]c3ccccc23)NC(=O)[C@H](Cc2ccc(N)nc2)NC(=O)[C@H](Cc2c[nH]c3ccc(Cl)cc23)NC(=O)[C@H](CCC(=O)O)NC1=O  remaining activity (Interleukin-1 receptor-like 2 (IL1RL2, Homo sapiens, UniProt Q9HB29); reporter gene (SEAP), inhibitor, HEK-Blue IL-36R reporter; HEK-Blue IL-36R cells; 0.0017 µM, 6 h, with: IL-36β 0.3 ng/mL): 97.7%
CC(C)(C)OC(=O)NC(Cc1cccc(Cl)c1)C(=O)NCC=CS(=O)(=O)c1ccccc1 (stereo not drawn)  remaining activity (Rhodesain (rhodesain, Trypanosoma brucei rhodesiense, UniProt Q95PM0); enzyme activity, inhibitor, fluorescence; 5 µM): < 1%
CN(Cc1cc(C2CC2)on1)C(=O)c1cccc(-c2ccc3c(c2)CCO3)c1  remaining activity (Acetyl-CoA synthetase (Cryptococcus neoformans, UniProt J9VFT1); enzyme activity, inhibitor, coupled pyrophosphate; 25 µM): 89.7% and 94.3%
O=C(CN(Cc1ccc2c(c1)OCO2)Cc1ccc2c(c1)OCO2)NO  remaining activity (Astl; enzyme activity, inhibitor, fluorogenic; 5 µM): 29 ± 5%
CCC1(CC)C(=O)N(c2cccc(CN3CCN(Cc4ccc5ccc6cccc7ccc4c5c67)CC3)c2)C1=O  remaining activity (Dipeptidyl peptidase 8 (Homo sapiens, UniProt Q6V1X1); enzyme activity, inhibitor; 5 µM): > 90%
COC(=O)[C@@]1(C(C)C)C=C(C(=O)Nc2cccc(C(=O)Nc3ccc(Nc4nccc(-c5cccnc5)n4)c(C)c3)c2)C(=O)CC1  remaining activity (MAPK8 (Homo sapiens, UniProt P45983); kinase activity, inhibitor; 0.002258 µM, unit not given, with: 10 mM glutathione; reference: no inhibitor): 1.01
COc1ccc(CN(CC(=O)NO)Cc2cccc(C(=O)O)c2)cc1  remaining activity (Astl; enzyme activity, inhibitor, fluorogenic; 5 µM): 67 ± 4%
C[C@](C(=O)NC1CCOCC1)(c1cncnc1)N(C(=O)[C@H](F)Cl)c1ccc(OC(F)(F)Cl)cc1  remaining activity (Plasminogen (PLG, Homo sapiens, UniProt P00747); enzyme activity, inhibitor; 10 µM): 100%
COc1cc(Nc2nc(C)cc(-c3cnn4nc(OC)ccc34)n2)cc(C(F)(F)F)c1  remaining activity (LRRK2 (Homo sapiens, UniProt Q5S007); inhibitor; 1 µM; reference: control): 100%

Excerpt of the above:
CC(C)[C@@H]1NC(=O)[C@H](Cc2ccccc2)NC(=O)CSC[C@@H](C(N)=O)NC(=O)[C@H](CCC(=O)O)NC(=O)[C@H](CO)NC(=O)[C@H](Cc2c[nH]c3cccc(Cl)c23)NC(=O)[C@H](C2CCCCC2)NC(=O)[C@H](C(C)C)NC(=O)[C@H](Cc2ccc(O)cc2)NC(=O)[C@H](CC(=O)O)NC(=O)[C@H](Cc2c[nH]c3ccccc23)NC(=O)[C@H](Cc2ccc(N)nc2)NC(=O)[C@H](Cc2c[nH]c3ccc(Cl)cc23)NC(=O)[C@H](CCC(=O)O)NC1=O  remaining activity (Interleukin-1 receptor-like 2 (IL1RL2, Homo sapiens, UniProt Q9HB29); reporter gene (SEAP), inhibitor, HEK-Blue IL-36R reporter; HEK-Blue IL-36R cells; 0.0017 µM, 6 h, with: IL-36β 0.3 ng/mL): 97.7%
